Results gathered from unrelated publications.
Compare with care: the assays were run in different laboratories. Numbers after ± are the reported error.

The Cmax of CC(=O)N[C@H](CC(=O)O)C(=O)N[C@H](Cc1c[nH]c2ccccc12)C(=O)N[C@H](Cc1ccccc1)C(=O)N[C@H](CCCCN)C(=O)N[C@H](C)C(=O)N[C@H](Cc1ccccc1)C(=O)N[C@H](Cc1ccc(O)cc1)C(=O)N[C@H](CC(=O)O)C(=O)N[C@H](CCCCN)C(=O)N[C@@H](C(=O)N[C@H](C)C(=O)N[C@H](CCC(=O)O)C(=O)N[C@H](CCCCN)C(=O)N[C@H](Cc1ccccc1)C(=O)N[C@H](CCCCN)C(=O)N[C@H](CCC(=O)O)C(=O)N[C@H](C)C(=O)N[C@H](Cc1ccccc1)C(N)=O)C(C)C is reported as 3.37 ng/mL (statin-treated high-risk CHD women, plasma; oral, 100 mg daily, day 13, 0 to 8 h, mean, detected subjects).
For CCCC[C@H](NC(C)=O)C(=O)N[C@H]1CC(=O)NCCCC[C@@H](C(=O)N[C@@H](C(=O)N2CCC[C@@H]2C(N)=O)C(C)C)NC(=O)[C@H](Cc2c[nH]c3ccccc23)NC(=O)[C@H](CCCN=C(N)N)NC(=O)[C@@H](Cc2ccc3ccccc3c2)NC(=O)[C@@H]2CCCN2C1=O, the Cmax was 1520 ± 200 ng/mL (dog, cachectic, plasma; subcutaneous, 0.75 mg/kg once daily, day 1, 1 h post-dose).
The Cmax of N=C(N)NCCC[C@@H]1NC(=O)[C@H](Cc2c[nH]c3ccccc23)NC(=O)[C@@H](CC2CCCCC2)NC(=O)[C@@H]2CCCN2C(=O)[C@@H](NC(=O)CCc2ccccc2)CCCNC1=O is reported as 770 ng/mL (C57BL/6J mouse, plasma; oral, 1 mg/kg, single dose).
The Cmax of CC(C)C[C@@H](NC(=O)[C@H](NC(=O)[C@H]1CCCN1)[C@H](C)O)C(=O)N[C@H](Cc1c[nH]cn1)C(=O)N[C@@H](C(=O)N[C@H](Cc1c[nH]cn1)C(=O)N[C@H](CC(N)=O)C(=O)N[C@H](CCCNC(=N)N)C(=O)N[C@H](CCCNC(=N)N)C(=O)N[C@H](CCCNC(=N)N)C(=O)N[C@H](CCCNC(=N)N)C(=O)N[C@H](CCCNC(=N)N)C(N)=O)[C@H](C)O is reported as 21 ± 18 ng/mL (Beagle dog, CSF; oral, 50 mg/kg).
CC(C)(O)c1ncc([S@](N)(=O)=NC(=O)Nc2c3c(cc4c2CCC4)CCC3)s1 has a Cmax of 3470 ng/mL (healthy human, fed; oral, 25 mg twice daily, day 14, tablet formulation, geometric mean).
The Cmax of N#CC1(c2ccc3c(N)ncnn23)OC(COP(=O)(O)O)C(O)C1O (stereo not shown) is reported as 27400 nmol/kg (LC-MS/MS; CD-1 mouse, kidney; oral, 100 mg/kg of remdesivir).
With CCCC[C@H](NC(C)=O)C(=O)N[C@H]1CC(=O)NCCCC[C@@H](C(=O)N[C@@H](C(=O)N2CCC[C@@H]2C(N)=O)C(C)C)NC(=O)[C@H](Cc2c[nH]c3ccccc23)NC(=O)[C@H](CCCN=C(N)N)NC(=O)[C@@H](Cc2ccc3ccccc3c2)NC(=O)[C@@H]2CCCN2C1=O the Cmax was 2600 ± 300 ng/mL (Beagle dog, both sexes, plasma; subcutaneous, once daily, 0.75 mg/kg, day 1).
CC1(C)CCC(CN2CCN(c3ccc(C(=O)NS(=O)(=O)c4ccc(NCC5COCCO5)c([N+](=O)[O-])c4)c(N4CCCOc5nc6[nH]ccc6cc54)c3)CC2)=C(c2ccc(Cl)cc2)C1 (stereo not shown) gave a Cmax of 8000 ng/mL (male Beagle dogs, plasma; oral, 25 mg/kg).
Cc1ncc2c(n1)CN(C(=O)Nc1nc(-c3cccs3)ccc1N)C2 gave a Cmax of 6280 ± 1510 ng/mL (male beagle dogs; oral, 45 mg/kg daily, day 14).
With Cc1ccc(OCC(=O)O)cc1 the Cmax was 1180 ± 275 ng/mL (Sprague-Dawley rat Crl:CD(SD), male, plasma; oral, 10 mg/kg/day of parent drug, day 90, 90-day repeated dosing).

Excerpt of the above:
For CCCC[C@H](NC(C)=O)C(=O)N[C@H]1CC(=O)NCCCC[C@@H](C(=O)N[C@@H](C(=O)N2CCC[C@@H]2C(N)=O)C(C)C)NC(=O)[C@H](Cc2c[nH]c3ccccc23)NC(=O)[C@H](CCCN=C(N)N)NC(=O)[C@@H](Cc2ccc3ccccc3c2)NC(=O)[C@@H]2CCCN2C1=O, the Cmax was 1520 ± 200 ng/mL (dog, cachectic, plasma; subcutaneous, 0.75 mg/kg once daily, day 1, 1 h post-dose).
The Cmax of N=C(N)NCCC[C@@H]1NC(=O)[C@H](Cc2c[nH]c3ccccc23)NC(=O)[C@@H](CC2CCCCC2)NC(=O)[C@@H]2CCCN2C(=O)[C@@H](NC(=O)CCc2ccccc2)CCCNC1=O is reported as 770 ng/mL (C57BL/6J mouse, plasma; oral, 1 mg/kg, single dose).
